Published values collected from several papers.
Lines come from different studies, so protocols differ. Values joined by “and” are separate records of one study, mostly repeats; a detail may differ. ± gives the spread as reported.

For `COc1c(O[C@@H]2O[C@H](CO)[C@@H](O)[C@H](O)[C@H]2O)c(C)cc2c1C(=O)c1c(O)cccc1C2=O`, the cell viability was 64.8 ± 5.18% (HepaRG co-cultured with HK-2; MTT; 66.67 µM, 24 h; baseline: untreated control).
`Cc1cccc(CNC(=O)c2cn(CCNC(=O)c3ccccc3S)c3cc4c(cc3c2=O)OC(F)(F)O4)n1` has a Tmax of 0.833 ± 0.58 h (Sprague-Dawley rat, male, whole blood; intramuscular, 30 mg/kg of parent drug).
With `COc1c(O)c(C)cc2c1C(=O)c1c(O)cccc1C2=O` the cell viability was 54.9 ± 8.5% (HepaRG co-cultured with HK-2; MTT; 133.33 µM, 24 h; baseline: untreated control).
For `C=C1C(=O)O[C@@H]2C[C@@]3(C)CCCC(=C)[C@@H]3C[C@H]12`, the confluence was 0.81 ± 0.12 (COS-7; 10 µM, 24 h, 0.1% DMSO, unit not given; baseline: vehicle control).
For `CCOc1c([C@H](C)n2nc(C)c3c(N)ncnc32)cc(Cl)c(F)c1[C@@H]1CNC(=O)C1`, the Tmax was 1 h (patients with B-cell malignancies, plasma; oral, 20 mg, day 15, monotherapy).
With `NC1(C(=O)N[C@@H](CCO)c2ccc(Cl)cc2)CCN(c2nc[nH]c3nccc2-3)CC1` the Tmax was 1 h and 2 h (human, plasma).
`C=CCn1c(=O)c2cnc(Nc3ccc(N4CCN(C)CC4)cc3)nc2n1-c1cccc(C(C)(C)O)n1` gave a Tmax of 2.5 h (human; oral, 125 mg twice daily, cycle 1 day 17, together with: durvalumab 1500 mg IV; median).
For `O=C(O)CCc1nc(-c2ccccc2)c(-c2ccccc2)o1`, the confluence was 0.98 ± 0.02 (COS-7; 50 µM, 24 h, 0.1% DMSO, unit not given; baseline: vehicle control).
For `C=CC(=O)N1CCC[C@@H](n2nc(-c3ccc(Oc4ccccc4)cc3)c3c(N)ncnc32)C1`, the Tmax was 1 h (Wistar rat, male, small intestine; oral, 50 mg/kg).
The Tmax of `CSc1ccccc1C(=O)NCCn1cc(C(=O)NCc2cccc(C)n2)c(=O)c2cc3c(cc21)OC(F)(F)O3` is reported as 0.083 h (Sprague-Dawley rat, male, plasma; intravenous, 5 mg/kg of parent drug).
For `CN1CCC[C@H](CN2c3ccccc3Sc3ccccc32)C1.Cl`, the Tmax was 6 h (Wistar rats, female, brain; oral, 16 mg/kg).
With `Cl.[2H]C([2H])([2H])CC(=O)c1cnc(NC(=O)C2CC2)cc1Nc1cccc(-c2ncn(C([2H])([2H])[2H])n2)c1OC` the Tmax was 0.75 h (human, fasted, plasma; oral, 25 mg, single dose, liquid formulation).
The Tmax of `CCn1cc(C(=O)N2CCOCC2)c(=O)c2cc(NC3Cc4ccccc4C3)cnc21` is reported as 4 h (human, fed; oral suspension, 300 mg/day twice daily, day 8, median).
For `CCCCC1=NC2(CCCC2)C(=O)N1Cc1ccc(-c2ccccc2S(=O)(=O)Nc2noc(C)c2C)c(COCC)c1`, the Tmax was 4.26 h (healthy adult volunteers, plasma; oral, 200 mg, single dose, fed, crushed tablet).

Repeated from above:
For `C=C1C(=O)O[C@@H]2C[C@@]3(C)CCCC(=C)[C@@H]3C[C@H]12`, the confluence was 0.81 ± 0.12 (COS-7; 10 µM, 24 h, 0.1% DMSO, unit not given; baseline: vehicle control).
With `COc1c(O)c(C)cc2c1C(=O)c1c(O)cccc1C2=O` the cell viability was 54.9 ± 8.5% (HepaRG co-cultured with HK-2; MTT; 133.33 µM, 24 h; baseline: untreated control).
